Assay results gathered from unrelated publications.
Parts stem from different laboratories: compare values within a part only.

Set 1 — cell line: mouse MPNST tumor cells; technique: high-content immunofluorescence imaging; measured: nuclear SOX9; tested at: 10 µM; time: 12 h; notes: mean of 2 replicates; baseline: DMSO control; reading: higher = more nuclear SOX9
Under “nuclear SOX9 intensity”, `O=C(Oc1ccc([N+](=O)[O-])cc1)N1CCC(C(O)(c2ccc3c(c2)OCO3)c2ccc3c(c2)OCO3)CC1` is recorded as 109 % of DMSO.
`CN1CC[C@]2(c3cccc(O)c3)Cc3nc4ccccc4cc3C[C@H]2C1`: “nuclear SOX9 intensity” 109 % of DMSO.
`O=C(O)C(=O)c1cn(Cc2ccccc2)c2ccc(-c3ccc(OC(F)(F)F)cc3)cc12` — result for “nuclear SOX9 intensity”: 89.5 % of DMSO.

Single results of other studies
CAMK2A: Calcium/calmodulin-dependent protein kinase type II subunit alpha (CAMK2A, Homo sapiens, UniProt Q9UQM7)
Chain of UniProt Q9UQM7 (whole entry, looked up): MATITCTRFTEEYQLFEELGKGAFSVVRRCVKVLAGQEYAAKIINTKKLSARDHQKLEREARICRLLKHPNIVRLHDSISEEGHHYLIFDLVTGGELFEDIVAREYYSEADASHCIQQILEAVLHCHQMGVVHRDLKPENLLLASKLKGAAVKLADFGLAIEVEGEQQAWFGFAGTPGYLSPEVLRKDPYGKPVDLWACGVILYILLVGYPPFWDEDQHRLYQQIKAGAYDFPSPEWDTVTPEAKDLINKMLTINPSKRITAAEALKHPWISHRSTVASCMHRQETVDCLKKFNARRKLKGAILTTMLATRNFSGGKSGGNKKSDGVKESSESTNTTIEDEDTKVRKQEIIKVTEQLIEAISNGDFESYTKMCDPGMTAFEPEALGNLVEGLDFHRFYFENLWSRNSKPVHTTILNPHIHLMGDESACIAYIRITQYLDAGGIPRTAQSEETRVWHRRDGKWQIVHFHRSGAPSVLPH
With `CCC(N)C(O)c1ccc(O)c(O)c1` (stereo not drawn) the viability was 98.5% (Huh-7; 10 µM, 24 h).
With `CC(C)c1ccc(CN2CCN(CCO)CC2)cc1` the remaining compound was 73.2% (mouse, microsomes or S9; 2 µM, 0.5 h).
The inhibition of `O=c1ccc2cc3ccoc3c(O)c2o1` is reported as 13% (CAMK2A; enzyme activity, inhibitor; 10 µM).
With `C[C@H](N)[C@H](O)c1ccc(O)c(O)c1` the viability was 100% (Huh-7; 10 µM, 24 h).
With `CO[C@H]1C[C@H](O[C@H]2CC[C@@]3(C)C(=CC[C@]4(O)[C@@H]3C[C@@H](OC(=O)c3ccc(O)cc3)[C@@]3(C)[C@]4(O)CC[C@@]3(O)C(C)=O)C2)O[C@H](C)[C@H]1O[C@H]1C[C@H](OC)[C@H](O[C@H]2C[C@@H](OC)[C@H](O)[C@@H](C)O2)[C@@H](C)O1` the inhibition was -40% (CAMK2A; enzyme activity, inhibitor; 10 µM).
With `COc1ccc2c(c1OC)C(=O)O[C@@H]2[C@H]1c2cc3c(cc2CCN1C)OCO3` the viability was 101% (Huh-7; 10 µM, 24 h).
